Experimental data collected from several papers.
Parts stem from different laboratories: compare values within a part only. “And” joins repeats or separate records; there may be more than shown.
Sequence of UniProt Q8TF76 (whole entry, looked up): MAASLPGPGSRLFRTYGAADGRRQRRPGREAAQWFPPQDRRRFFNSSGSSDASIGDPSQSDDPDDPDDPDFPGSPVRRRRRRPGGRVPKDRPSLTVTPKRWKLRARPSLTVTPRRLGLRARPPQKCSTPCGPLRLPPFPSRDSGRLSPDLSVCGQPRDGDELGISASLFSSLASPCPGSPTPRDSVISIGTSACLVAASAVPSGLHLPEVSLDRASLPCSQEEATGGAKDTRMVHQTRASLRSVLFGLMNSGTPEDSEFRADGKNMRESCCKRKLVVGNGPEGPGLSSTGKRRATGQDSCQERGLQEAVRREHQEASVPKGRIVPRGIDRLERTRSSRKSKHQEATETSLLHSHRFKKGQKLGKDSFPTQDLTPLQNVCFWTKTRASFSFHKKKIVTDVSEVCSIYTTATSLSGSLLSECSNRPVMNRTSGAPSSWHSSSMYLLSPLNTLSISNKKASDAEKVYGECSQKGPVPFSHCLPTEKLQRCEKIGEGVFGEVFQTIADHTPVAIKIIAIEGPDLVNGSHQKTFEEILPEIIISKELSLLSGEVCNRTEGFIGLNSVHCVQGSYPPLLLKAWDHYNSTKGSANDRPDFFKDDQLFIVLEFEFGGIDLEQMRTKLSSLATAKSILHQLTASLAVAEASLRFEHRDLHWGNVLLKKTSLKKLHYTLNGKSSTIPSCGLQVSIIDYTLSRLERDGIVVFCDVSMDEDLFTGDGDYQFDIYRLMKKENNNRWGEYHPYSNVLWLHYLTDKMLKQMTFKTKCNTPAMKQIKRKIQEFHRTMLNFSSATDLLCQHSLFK
Sequence of UniProt Q6P3R8 (whole entry, looked up): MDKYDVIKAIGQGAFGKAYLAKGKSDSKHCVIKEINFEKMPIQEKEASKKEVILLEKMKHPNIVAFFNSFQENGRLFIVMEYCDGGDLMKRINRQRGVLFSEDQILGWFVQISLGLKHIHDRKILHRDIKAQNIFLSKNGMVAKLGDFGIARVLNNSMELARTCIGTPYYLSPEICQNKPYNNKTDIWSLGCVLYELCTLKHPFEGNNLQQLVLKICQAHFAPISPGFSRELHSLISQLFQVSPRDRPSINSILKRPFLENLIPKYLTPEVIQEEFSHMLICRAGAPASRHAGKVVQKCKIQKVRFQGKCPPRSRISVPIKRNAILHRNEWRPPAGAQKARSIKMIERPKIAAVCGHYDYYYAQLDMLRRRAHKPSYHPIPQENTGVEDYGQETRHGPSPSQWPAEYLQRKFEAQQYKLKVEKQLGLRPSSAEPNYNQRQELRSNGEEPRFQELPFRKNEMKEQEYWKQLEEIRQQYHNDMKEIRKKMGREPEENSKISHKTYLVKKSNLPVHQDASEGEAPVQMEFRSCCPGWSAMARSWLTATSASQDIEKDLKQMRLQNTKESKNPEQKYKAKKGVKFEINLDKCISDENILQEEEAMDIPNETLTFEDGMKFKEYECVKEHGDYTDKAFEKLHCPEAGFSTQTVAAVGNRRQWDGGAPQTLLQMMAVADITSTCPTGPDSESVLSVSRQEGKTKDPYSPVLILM
Sequence of UniProt P19784 (whole entry, looked up): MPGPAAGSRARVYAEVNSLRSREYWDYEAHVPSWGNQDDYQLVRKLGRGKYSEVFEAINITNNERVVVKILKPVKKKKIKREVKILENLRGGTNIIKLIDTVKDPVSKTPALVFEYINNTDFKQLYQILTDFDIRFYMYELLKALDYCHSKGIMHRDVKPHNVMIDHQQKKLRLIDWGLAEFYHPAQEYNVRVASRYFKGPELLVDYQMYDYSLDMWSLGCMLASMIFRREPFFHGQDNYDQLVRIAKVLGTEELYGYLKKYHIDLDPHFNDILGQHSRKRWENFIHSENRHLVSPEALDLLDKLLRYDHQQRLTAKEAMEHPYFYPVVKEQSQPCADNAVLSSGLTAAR
Sequence of UniProt O00238 (whole entry, looked up): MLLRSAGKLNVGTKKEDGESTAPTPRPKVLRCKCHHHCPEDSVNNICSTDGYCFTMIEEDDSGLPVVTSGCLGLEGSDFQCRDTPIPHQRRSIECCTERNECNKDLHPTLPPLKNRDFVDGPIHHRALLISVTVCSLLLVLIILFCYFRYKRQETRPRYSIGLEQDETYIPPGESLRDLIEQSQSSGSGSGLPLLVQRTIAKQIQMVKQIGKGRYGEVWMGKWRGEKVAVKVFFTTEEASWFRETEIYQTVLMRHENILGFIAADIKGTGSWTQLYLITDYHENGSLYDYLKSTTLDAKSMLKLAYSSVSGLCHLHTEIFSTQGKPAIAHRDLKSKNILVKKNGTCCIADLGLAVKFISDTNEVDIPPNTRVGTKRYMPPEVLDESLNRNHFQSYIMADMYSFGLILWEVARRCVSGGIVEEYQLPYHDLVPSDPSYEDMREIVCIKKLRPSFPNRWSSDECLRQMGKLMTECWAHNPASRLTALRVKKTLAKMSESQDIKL

Sample 1
Target: Bromodomain-containing protein 4, BD1 (BRD4, Homo sapiens, UniProt O60885)
Concentration: 50 µM
The inhibition of `Cc1cc2c(F)c(Oc3ncnn4cc(OC[C@@H](C)O)c(C)c34)ccc2[nH]1` is reported as 86.1%.
With `Cc1ccc(F)c(NC(=O)Nc2ccc(-c3cccc4[nH]nc(N)c34)cc2)c1` the inhibition was 58.9%.
`C[C@@H](Oc1cc(-c2cnn(C3CCNCC3)c2)cnc1N)c1c(Cl)ccc(F)c1Cl` gave an inhibition of 71.1%.
`COCCNCc1ccc(-c2cc3nccc(Oc4ccc(NC(=S)NC(=O)Cc5ccc(F)cc5)cc4F)c3s2)nc1` gave an inhibition of 38.8%.
`C#Cc1cccc(Nc2ncnc3cc(OC)c(OCCCCCCC(=O)NO)cc23)c1` gave an inhibition of 37%.
With `Cc1ccc(NC(=O)c2ccc(CN3CCN(C)CC3)cc2)cc1Nc1nc(-c2cccnc2)cs1` the inhibition was 52.8%.
The inhibition of `O=C1NC(=O)[C@@H](c2cn3c4c(cccc24)CCC3)[C@@H]1c1c[nH]c2ccccc12` is reported as 52.6%.

Sample 2
SMILES: Cc1nccc(COC(=O)N2C[C@@H]3[C@@H](CNC(=O)c4ccc5[nH]nnc5c4)[C@@H]3C2)n1
Effect on: cell-free assay
Method: competition with immobilised ligand
Concentration: 1 µM
Maternal embryonic leucine zipper kinase (MELK, Homo sapiens, UniProt Q14680) — remaining binding: 100%.
It gave 82% for remaining binding (Serine/threonine-protein kinase MRCK beta (CDC42BPB, Homo sapiens, UniProt Q9Y5S2)).
For Fibroblast growth factor receptor 1 (FGFR1, Homo sapiens, UniProt P11362): remaining binding read 91%.
For Ribosomal protein S6 kinase alpha-2, N-terminal kinase domain (RPS6KA2, Homo sapiens, UniProt Q15349): remaining binding read 100%.
Ribosomal protein S6 kinase alpha-4, N-terminal kinase domain (RPS6KA4, Homo sapiens, UniProt O75676) — remaining binding: 100%.
The remaining binding was 95% (Serine/threonine-protein kinase 32C (STK32C, Homo sapiens, UniProt Q86UX6)).
The remaining binding was 87% (Serine/threonine-protein kinase Nek5 (NEK5, Homo sapiens, UniProt Q6P3R8)).
For Myotonin-protein kinase (DMPK, Homo sapiens, UniProt Q09013): remaining binding read 98%.
For Ribosomal protein S6 kinase alpha-6, C-terminal kinase domain (RPS6KA6, Homo sapiens, UniProt Q9UK32): remaining binding read 95%.
The remaining binding was 85% (Casein kinase II subunit alpha' (CSNK2A2, Homo sapiens, UniProt P19784)).
LIM domain kinase 2 (LIMK2, Homo sapiens, UniProt P53671) — remaining binding: 92%.
Phosphatidylinositol 4,5-bisphosphate 3-kinase catalytic subunit alpha isoform (PIK3CA, Homo sapiens, UniProt P42336, Q546K) — remaining binding: 85%.
For Serine/threonine-protein kinase 36 (STK36, Homo sapiens, UniProt Q9NRP7): remaining binding read 92%.
Serine/threonine-protein kinase haspin (HASPIN, Homo sapiens, UniProt Q8TF76) — remaining binding: 91%.
It gave 100% for remaining binding (Bone morphogenetic protein receptor type-1B (BMPR1B, Homo sapiens, UniProt O00238)).
Hepatocyte growth factor receptor (MET, Homo sapiens, UniProt P08581, M1250T) — remaining binding: 100%.
The remaining binding was 100% (Ephrin type-A receptor 8 (EPHA8, Homo sapiens, UniProt P29322)).

Sample 3
Target: DNA polymerase theta, ATPase domain (POLQ, Homo sapiens, UniProt O75417)
Sequence of UniProt O75417 (whole entry, unmodified, looked up): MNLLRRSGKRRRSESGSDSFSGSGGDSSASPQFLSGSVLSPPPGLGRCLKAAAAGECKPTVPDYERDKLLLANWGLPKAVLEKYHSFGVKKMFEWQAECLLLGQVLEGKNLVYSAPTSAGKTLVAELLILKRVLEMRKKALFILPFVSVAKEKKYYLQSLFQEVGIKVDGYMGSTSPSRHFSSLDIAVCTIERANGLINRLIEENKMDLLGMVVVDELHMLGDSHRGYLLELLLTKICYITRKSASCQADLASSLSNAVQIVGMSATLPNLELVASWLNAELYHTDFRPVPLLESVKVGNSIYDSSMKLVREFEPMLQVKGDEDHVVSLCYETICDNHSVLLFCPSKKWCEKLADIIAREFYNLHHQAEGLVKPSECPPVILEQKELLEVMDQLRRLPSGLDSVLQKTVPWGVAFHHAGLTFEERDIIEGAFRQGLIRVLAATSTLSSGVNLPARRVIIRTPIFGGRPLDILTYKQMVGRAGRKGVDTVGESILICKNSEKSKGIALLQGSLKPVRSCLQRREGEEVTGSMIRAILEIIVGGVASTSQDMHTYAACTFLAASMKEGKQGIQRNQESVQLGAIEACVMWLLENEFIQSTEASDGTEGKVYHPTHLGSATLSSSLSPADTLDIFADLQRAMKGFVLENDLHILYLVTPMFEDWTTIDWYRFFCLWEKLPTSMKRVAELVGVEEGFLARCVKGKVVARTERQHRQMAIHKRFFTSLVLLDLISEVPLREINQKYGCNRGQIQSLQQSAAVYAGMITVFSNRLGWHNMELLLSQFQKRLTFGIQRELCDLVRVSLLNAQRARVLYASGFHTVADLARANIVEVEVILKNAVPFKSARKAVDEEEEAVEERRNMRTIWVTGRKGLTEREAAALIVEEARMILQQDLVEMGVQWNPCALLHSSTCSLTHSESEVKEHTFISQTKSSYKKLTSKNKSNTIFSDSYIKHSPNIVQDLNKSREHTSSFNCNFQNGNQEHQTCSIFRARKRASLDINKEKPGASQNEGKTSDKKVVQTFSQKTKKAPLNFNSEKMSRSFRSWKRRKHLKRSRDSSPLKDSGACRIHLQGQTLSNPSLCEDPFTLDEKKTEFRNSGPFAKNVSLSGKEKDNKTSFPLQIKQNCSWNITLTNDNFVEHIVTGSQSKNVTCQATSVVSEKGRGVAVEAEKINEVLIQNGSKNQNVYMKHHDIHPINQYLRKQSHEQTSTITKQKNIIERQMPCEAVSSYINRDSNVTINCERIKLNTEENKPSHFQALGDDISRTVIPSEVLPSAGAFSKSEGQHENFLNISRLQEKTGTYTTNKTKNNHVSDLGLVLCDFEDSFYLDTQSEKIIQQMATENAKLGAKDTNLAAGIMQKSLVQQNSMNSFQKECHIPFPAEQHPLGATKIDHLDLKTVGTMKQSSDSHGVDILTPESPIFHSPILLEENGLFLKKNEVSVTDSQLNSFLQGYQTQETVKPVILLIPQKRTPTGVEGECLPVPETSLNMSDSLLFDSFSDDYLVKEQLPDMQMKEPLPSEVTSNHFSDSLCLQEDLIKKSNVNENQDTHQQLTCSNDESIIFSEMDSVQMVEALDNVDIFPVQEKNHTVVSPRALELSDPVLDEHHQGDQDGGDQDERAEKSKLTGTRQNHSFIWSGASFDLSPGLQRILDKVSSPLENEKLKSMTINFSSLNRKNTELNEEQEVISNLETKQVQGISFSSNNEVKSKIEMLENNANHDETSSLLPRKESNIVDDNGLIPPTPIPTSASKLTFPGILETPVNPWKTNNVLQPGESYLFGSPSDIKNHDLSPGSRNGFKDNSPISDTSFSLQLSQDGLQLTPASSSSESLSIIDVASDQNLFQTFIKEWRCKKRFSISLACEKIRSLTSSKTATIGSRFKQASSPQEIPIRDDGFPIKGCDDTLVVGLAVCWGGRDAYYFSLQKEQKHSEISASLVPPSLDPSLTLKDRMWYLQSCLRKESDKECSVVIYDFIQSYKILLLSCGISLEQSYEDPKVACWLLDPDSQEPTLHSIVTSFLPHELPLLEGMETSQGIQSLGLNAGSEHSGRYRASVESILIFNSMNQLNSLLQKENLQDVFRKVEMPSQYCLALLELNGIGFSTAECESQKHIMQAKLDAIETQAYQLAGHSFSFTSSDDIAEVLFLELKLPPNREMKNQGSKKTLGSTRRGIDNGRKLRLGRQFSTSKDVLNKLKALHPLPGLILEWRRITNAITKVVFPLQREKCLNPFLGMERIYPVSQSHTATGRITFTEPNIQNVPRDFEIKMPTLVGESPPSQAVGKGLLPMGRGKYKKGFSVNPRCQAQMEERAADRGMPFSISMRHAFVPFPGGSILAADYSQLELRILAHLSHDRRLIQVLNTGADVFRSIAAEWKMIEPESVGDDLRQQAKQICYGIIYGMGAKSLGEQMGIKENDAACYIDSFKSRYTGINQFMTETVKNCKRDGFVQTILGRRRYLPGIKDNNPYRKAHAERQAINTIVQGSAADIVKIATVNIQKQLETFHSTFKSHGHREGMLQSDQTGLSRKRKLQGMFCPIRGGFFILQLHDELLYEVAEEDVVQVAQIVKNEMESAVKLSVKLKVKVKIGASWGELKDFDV
Effect on: enzyme activity
Action: inhibitor
Concentration: 77 µM
Reference: untreated
`CCCCCCCCCCCCCCCC[N+](C)(C)CCN(Cc1ccc(OC)cc1)c1ncccn1` has a remaining activity of 102%.
`COc1cc2ncnc(N3CCN(C(=O)Nc4ccc(Oc5ccccc5)cc4)CC3)c2cc1OC` gave a remaining activity of 112%.
For `O=C(NC1CCN(CCCCC2(C(=O)NCC(F)(F)F)c3ccccc3-c3ccccc32)CC1)c1ccccc1-c1ccc(C(F)(F)F)cc1`, the remaining activity was 99.4%.
With `CCN(C)C(=O)Oc1cccc([C@H](C)N(C)C)c1` the remaining activity was 96.6%.
With `COC(=O)Nc1nc2cc(Sc3ccccc3)ccc2[nH]1` the remaining activity was 99.7% and 94.3%.
The remaining activity of `CC(C)(Oc1ccc(Cl)cc1)C(=O)O` is reported as 97.5% and 97.2%.
`Cn1nnc2c(C(N)=O)ncn2c1=O` gave a remaining activity of 92%.
`O=C(O)CCCc1ccccc1` has a remaining activity of 101%.
`COc1ccc2cc1Oc1ccc(cc1)C[C@H]1c3c(cc4c(c3Oc3cc5c(cc3OC)CCN(C)[C@@H]5C2)OCO4)CCN1C` gave a remaining activity of 103%.
The remaining activity of `COc1cc2c(cc1Cc1cccc(Cl)c1F)c(=O)c(C(=O)O)cn2[C@H](CO)C(C)C` is reported as 66.1%.

Sample 4
SMILES: CC(C)n1cnc(-c2ccc(F)cc2)c1-c1ncc(C(=O)Nc2ccc(N3CCN(C)CC3)cc2)[nH]1
Method: phase 2a trial
Host: idiopathic pulmonary fibrosis patients
For 30 mg once daily, grade 1 emergent event: “patients with hypophosphataemia” read 0%.
It gave 0% for “patients with hypophosphataemia” (all arms pooled, grade 2 emergent event).
For 30 mg once daily, grade 5 emergent event: “patients with hypophosphataemia” read 0%.
It gave 0% for “patients with hypophosphataemia” (60 mg once daily, grade 3 emergent event).
It gave 0% for “patients with hypophosphataemia” (30 mg once daily, grade 4 emergent event).
The “patients with hypophosphataemia” was 0% (all arms pooled, grade 3 emergent event).
For 60 mg once daily, grade 2 emergent event: “patients with hypophosphataemia” read 0%.

For quick reference, copied from above (sample 2):
Maternal embryonic leucine zipper kinase (MELK, Homo sapiens, UniProt Q14680) — remaining binding: 100%.
It gave 82% for remaining binding (Serine/threonine-protein kinase MRCK beta (CDC42BPB, Homo sapiens, UniProt Q9Y5S2)).
For Fibroblast growth factor receptor 1 (FGFR1, Homo sapiens, UniProt P11362): remaining binding read 91%.
For Ribosomal protein S6 kinase alpha-2, N-terminal kinase domain (RPS6KA2, Homo sapiens, UniProt Q15349): remaining binding read 100%.
